Results pooled from the literature.
A part holds a random share of what one study measured.
UniProt Q02779, sequence (whole entry, looked up): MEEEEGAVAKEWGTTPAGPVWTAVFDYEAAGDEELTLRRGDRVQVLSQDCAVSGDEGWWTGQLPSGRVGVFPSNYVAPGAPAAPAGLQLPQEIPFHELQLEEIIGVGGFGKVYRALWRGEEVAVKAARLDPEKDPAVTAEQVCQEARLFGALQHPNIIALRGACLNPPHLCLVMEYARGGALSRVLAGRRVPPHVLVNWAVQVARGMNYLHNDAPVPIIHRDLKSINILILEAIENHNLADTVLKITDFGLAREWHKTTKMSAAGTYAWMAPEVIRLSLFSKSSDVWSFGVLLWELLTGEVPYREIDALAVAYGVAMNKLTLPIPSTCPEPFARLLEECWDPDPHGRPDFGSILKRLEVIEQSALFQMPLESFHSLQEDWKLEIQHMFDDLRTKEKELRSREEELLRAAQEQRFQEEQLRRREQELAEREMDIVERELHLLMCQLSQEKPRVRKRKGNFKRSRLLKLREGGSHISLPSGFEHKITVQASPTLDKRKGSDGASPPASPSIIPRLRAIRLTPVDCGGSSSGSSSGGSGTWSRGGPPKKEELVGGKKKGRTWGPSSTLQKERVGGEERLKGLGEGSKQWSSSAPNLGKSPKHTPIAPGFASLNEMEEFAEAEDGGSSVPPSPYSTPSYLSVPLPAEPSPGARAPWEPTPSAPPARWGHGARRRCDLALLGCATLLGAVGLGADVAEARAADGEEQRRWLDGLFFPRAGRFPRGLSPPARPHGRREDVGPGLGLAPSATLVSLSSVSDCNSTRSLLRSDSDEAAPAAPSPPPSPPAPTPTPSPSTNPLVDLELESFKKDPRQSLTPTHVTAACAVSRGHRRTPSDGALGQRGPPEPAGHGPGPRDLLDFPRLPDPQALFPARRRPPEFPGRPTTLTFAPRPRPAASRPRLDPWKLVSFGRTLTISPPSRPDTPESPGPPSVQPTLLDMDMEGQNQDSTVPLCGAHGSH
UniProt Q9NSY1, sequence (whole entry, looked up): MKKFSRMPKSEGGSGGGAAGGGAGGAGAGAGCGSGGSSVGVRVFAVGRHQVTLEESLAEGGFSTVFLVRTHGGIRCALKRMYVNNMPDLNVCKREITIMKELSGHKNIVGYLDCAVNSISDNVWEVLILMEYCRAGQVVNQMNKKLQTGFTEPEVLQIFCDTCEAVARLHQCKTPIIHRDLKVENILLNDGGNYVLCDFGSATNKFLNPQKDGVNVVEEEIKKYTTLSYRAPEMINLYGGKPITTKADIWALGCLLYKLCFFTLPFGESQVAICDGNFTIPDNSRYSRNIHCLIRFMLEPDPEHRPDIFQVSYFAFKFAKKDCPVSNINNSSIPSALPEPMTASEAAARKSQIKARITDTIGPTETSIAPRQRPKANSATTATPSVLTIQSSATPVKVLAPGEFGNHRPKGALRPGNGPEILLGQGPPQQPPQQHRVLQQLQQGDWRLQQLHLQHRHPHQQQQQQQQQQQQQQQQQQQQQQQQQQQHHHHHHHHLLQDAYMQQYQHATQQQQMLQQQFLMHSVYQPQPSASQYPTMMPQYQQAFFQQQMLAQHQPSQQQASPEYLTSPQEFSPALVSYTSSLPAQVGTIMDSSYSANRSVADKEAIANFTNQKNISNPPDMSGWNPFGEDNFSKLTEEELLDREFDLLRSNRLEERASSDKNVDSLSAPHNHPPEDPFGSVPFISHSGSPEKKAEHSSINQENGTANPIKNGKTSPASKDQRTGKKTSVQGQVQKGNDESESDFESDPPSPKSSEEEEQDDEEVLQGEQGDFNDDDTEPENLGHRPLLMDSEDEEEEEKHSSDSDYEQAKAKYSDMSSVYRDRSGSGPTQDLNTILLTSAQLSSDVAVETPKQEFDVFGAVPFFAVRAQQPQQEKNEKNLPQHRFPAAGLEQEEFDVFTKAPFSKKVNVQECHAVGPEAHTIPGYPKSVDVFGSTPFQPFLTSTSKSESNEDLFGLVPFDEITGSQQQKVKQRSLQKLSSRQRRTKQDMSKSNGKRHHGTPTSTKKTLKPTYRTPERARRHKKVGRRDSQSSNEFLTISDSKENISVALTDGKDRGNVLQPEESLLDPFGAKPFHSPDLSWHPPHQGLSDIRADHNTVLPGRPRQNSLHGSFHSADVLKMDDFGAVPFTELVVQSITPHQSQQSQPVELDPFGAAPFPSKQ
UniProt P29376, sequence (whole entry, looked up): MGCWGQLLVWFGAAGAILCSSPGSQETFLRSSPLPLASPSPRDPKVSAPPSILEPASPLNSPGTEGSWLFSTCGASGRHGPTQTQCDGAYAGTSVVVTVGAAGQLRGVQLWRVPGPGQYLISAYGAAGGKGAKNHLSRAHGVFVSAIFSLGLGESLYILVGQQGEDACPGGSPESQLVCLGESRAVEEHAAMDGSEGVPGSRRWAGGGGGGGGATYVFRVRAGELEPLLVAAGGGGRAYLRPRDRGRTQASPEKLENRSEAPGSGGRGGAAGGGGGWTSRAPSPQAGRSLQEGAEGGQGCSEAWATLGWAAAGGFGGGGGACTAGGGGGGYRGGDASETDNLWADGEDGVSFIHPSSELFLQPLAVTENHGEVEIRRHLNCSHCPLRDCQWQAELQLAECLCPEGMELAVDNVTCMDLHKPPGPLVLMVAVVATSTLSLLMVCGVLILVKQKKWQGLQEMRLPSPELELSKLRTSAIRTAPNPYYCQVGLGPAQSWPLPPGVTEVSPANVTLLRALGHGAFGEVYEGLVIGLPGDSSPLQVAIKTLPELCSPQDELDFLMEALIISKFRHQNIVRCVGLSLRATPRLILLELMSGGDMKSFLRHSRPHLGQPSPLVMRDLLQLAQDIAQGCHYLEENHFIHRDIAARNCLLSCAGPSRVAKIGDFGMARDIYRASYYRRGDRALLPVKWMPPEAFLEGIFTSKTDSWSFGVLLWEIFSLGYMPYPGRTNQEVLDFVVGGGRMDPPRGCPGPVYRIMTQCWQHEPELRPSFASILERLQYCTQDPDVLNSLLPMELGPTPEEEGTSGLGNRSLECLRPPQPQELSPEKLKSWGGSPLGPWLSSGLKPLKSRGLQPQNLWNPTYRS
UniProt Q9NRH2, sequence (whole entry, looked up): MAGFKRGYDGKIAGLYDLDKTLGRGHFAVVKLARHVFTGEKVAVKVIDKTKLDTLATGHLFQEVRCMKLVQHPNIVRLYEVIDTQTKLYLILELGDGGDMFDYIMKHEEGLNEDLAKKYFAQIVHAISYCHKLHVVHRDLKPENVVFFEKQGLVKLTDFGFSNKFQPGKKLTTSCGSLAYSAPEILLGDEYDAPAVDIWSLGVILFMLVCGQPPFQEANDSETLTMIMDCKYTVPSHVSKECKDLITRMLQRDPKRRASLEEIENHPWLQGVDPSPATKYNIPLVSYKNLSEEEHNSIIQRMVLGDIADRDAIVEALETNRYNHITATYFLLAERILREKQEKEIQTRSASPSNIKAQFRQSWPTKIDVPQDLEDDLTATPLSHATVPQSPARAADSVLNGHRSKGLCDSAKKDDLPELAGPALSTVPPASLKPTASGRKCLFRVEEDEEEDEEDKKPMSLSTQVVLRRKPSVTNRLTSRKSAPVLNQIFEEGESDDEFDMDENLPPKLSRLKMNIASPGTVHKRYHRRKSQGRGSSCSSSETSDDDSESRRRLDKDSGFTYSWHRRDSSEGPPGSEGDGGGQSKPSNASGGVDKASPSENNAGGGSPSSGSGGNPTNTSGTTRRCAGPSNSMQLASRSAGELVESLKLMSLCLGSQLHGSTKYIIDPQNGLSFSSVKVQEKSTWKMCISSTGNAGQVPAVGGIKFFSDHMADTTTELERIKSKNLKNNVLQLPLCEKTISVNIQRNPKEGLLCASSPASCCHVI

Series 1
Cell line: mouse MPNST tumor cells
Technique: high-content nuclear imaging
Item: cell number
Concentration: 10 µM
Time: 12 h
Notes: mean of 2 replicates
Relative to: plate mean
Reading: higher = more cells
| Compound | nuclei count |
| --- | --- |
| Cc1cc(/C(=C/Nc2ccc(Cl)cc2)C(=O)Nc2ccc(Cl)cc2)on1 | 1.86 z-score |
| CCOC(=O)[C@H](CCc1ccccc1)N[C@@H](C)C(=O)N1CCC[C@H]1C(=O)O | 1.65 z-score |
| Cc1ccc(S(=O)(=O)N[C@@H](CCN)C(=O)N[C@@H](Cc2ccccc2)C(N)=O)c2ccccc12 | 0.447 z-score |

Series 2
Target: Hepatocyte nuclear factor 3-alpha (Foxa1, Mus musculus, UniProt P35582, residues 1-468, full length assumed)
Technique: EMSA with sequencing
Form: double-stranded DNA, one strand shown
Sample: in vitro
Concentration: 10 and 20 nM
Notes: whole designed probe, mean of two concentrations, ends assumed
Relative to: negative control set to 0
Reading: higher = stronger binding
Construct (chain): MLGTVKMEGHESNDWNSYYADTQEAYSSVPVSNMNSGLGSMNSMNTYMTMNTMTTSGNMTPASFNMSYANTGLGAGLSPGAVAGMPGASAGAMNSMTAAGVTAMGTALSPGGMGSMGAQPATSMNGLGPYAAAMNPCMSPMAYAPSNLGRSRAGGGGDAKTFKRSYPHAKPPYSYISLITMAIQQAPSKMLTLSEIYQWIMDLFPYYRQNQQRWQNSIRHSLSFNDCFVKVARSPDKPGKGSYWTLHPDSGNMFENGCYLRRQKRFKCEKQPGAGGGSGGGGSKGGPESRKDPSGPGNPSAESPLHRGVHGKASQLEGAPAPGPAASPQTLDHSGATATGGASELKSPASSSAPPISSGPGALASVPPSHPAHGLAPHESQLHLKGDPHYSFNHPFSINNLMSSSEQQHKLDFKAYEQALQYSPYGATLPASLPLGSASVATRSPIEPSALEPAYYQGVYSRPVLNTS
| Oligonucleotide | normalised bound fraction [ratio] |
| --- | --- |
| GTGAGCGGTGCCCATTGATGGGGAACCATTTGCCTCCGTCCCCACCCCCAGCCTGCTGCCTCTCAGGTTCACACTTCCTGGGCTCAGAGTTTCATCCTGAGGCAGATGGCTCAGCCAGAGCAATCTGAGACAGCACTAAAGTCATCTAAACCAGAGAGCAAGCAGCGCAGGTGACGTGGAAAAGAAAACTTGGAAGCCACAACAAAGGCATGTGGGCTGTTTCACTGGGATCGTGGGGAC | -0.0616 |
| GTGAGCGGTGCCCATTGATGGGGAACACTCTGTAATTTTACACACGTGAAATTTCTCTGTTTCAAAAATAATAATACCAAGCATCTATAGGAGAGTAAATTGATACCAACATCAAAATGTAAACATGGAAGGTAAGAGAATTTTATAAGATCTGCTTTTTACACTTTCTTTTTCATATTCTATAAAAAGAGTACAACATAAGCAAAATGGTTGTCTAAATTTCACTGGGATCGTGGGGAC | 0.344 |
| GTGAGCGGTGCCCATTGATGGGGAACCAGTTTTGCAAAGACGGAGTCCGTCAGAGAAAGCATTTGTTTGATTTCATGCATTTGTGTTTCCTTTGTCCATTTCCTTTATATTTATTTATTTGTTTATTTATTTTTTTGAGACGGAGTTTCGATCCTCTCGCCCAGGCTGGAGTGCAATATCGCGATCTCGGCTCACTGCAACCTCCCCCTCCCGGGTTCATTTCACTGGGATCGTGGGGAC | 0.523 |
| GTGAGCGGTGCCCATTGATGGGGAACTGATGAAAACCAATACATGTAATTTTAAAATAAAGCAAGGACAATTATTTTTCAATAATTTCAATAGAATTAATAGAATAGGAAAGGAGTCCTGTTTACATTGTTTTTGTTGTTCTTGAAGCTCTGGCTTTCCTACAGACATGGCCTCAATAATCTTTCAACAGCACCCTGACGTAGACAAGGTGCACAGGGTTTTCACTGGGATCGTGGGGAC | 0.211 |
| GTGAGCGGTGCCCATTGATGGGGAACATACACTTCATTATGTCACTGTTGTTTGGTTGTGTTCTAGGCGAGAAACCACCTTTGGAAGGTTCACAGCAGCCCCAATTTAGCACTCTGCCAAGATTACATTGTCAGGCTGCATTGCCACTAGGGGGAACCATAGCTTTTTATCATCCCAGCCAGGGTGGCTGTGGGCAGCTTCTGCCTGGCAGGTAATAAGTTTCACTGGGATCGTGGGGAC | -0.0289 |
| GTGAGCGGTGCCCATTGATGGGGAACGCTCCTTTGCAGAGAATAAGATTTGATTTCATGCTTATCCATATGTTCTTAATAACTGCTTCCTTGACTTGTAAGATAAGACTAAGTTTTCCTGTTTACTCAGATTCTTCTAAAAGTCTCTTCTCCAGTTTGGAGAAAGGAAGAAAGTACATTGTTCCATTTATAGTTAACTAGTAGATTGATTGCAAATATCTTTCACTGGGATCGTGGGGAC | 0.143 |
| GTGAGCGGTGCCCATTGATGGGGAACAACAGAAACAGGCCAGCCTATTTACACAAGGACGTTTACTACAAAAACCTGAACCAGTGAGTAGCAATAAAGGGCTAGTTAAAAAGACTTCGGTATTTACATAGAACATGAATATGTGCATTATAAAGTTTGAGGTAGATCTATTTATGCCACTGTGGAATGATCTCGAAGATAAATAACTGACAAGCAAGACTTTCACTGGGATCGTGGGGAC | 0.482 |
| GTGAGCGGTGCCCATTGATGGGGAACATCACAATTGTATATAAACAATGTTTTGAATTAAAGAAGTAATGTATTTGCAGAAATTGCTTCCCTATTGTACCACATGATTCTTATTCAAAGTAAACACCAATAGTATACAGTGTTATAATGACTAAAAACAAACAAATGCCATTTTATATCATAGGATGTAATTTTATTTAAGTAGTAAAGAACTAATTTCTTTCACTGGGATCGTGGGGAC | 0.507 |

Series 3
Target: Ribosomal protein S6 kinase alpha-2 (RPS6KA2, Homo sapiens, UniProt Q15349)
UniProt Q15349, sequence (whole entry, looked up): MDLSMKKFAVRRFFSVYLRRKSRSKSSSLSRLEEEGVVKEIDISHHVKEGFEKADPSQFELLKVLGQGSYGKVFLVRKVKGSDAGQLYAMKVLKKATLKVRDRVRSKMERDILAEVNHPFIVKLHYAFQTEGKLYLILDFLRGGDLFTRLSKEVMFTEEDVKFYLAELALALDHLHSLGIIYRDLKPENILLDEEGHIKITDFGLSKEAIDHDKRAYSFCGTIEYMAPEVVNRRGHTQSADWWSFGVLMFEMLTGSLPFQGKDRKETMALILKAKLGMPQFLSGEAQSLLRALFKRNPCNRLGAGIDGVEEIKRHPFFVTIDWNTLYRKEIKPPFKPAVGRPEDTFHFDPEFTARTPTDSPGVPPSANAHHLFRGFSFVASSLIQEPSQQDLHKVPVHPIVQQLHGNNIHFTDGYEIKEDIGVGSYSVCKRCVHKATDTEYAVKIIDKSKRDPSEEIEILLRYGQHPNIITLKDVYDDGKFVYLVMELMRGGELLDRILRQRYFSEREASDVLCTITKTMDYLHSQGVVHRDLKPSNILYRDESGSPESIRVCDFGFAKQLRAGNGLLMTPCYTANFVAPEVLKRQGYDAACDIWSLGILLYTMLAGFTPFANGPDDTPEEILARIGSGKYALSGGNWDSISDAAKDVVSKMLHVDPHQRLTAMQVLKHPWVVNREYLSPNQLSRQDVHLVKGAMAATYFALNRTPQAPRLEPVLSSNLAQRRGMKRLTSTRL
Observed: enzyme activity
Action: inhibitor
Concentration: 0.5 µM
Relative to: control
| SMILES | remaining activity [%] |
| --- | --- |
| COc1ccc(C(=O)Nc2sc3c(c2C(N)=O)CCCC3)cc1OC | 112 |
| CNC(=O)c1cc(Oc2ccc(NC(=O)Nc3ccc(Cl)c(C(F)(F)F)c3)cc2)ccn1 | 93.3 |
| COc1cc2ncnc(Nc3ccc(F)c(Cl)c3)c2cc1OCCCN1CCOCC1 | 82.3 |
| Nc1[nH]nc2nc3ccccc3nc12 | 89.1 |
| Oc1ccc(-c2nc(-c3ccncc3)c(-c3ccc(F)cc3)[nH]2)cc1 | 101 |
| NCCNc1ncc(C(N)=O)c(Nc2cccc(C(F)(F)F)c2)n1 | 73.8 |
| O=C(Nc1cccc(Nc2cc(Nc3cccc(C(F)(F)F)c3)ncn2)c1)C1CC1 | 102 |
| Cn1sc(=O)n(Cc2ccccc2)c1=O | 104 |
| COc1cc2nccc(Oc3ccc(NC(=S)NC(=O)c4ccccc4C)cc3)c2cc1OC | 91.1 |
| Cn1c2ccccc2c2c3c(c4c5ccccc5n(CCC#N)c4c21)CNC3=O | 0.299 |
| O=C1NC(=O)C(c2cn(CCCn3ccnc3)c3ccccc23)=C1Nc1ccccc1 | 3.17 |
| O=C1NC(=O)c2cc(Nc3ccc(F)cc3)c(Nc3ccc(F)cc3)cc21 | 98.7 |
| CCOC(=O)c1c(C)[nH]c(/C=C2\C(=O)Nc3ccccc32)c1C | 71.4 |
| C#Cc1cccc(Nc2ncnc3cc(OCCOC)c(OCCOC)cc23)c1 | 101 |
| O=S(=O)(c1cccc2cnccc12)N1CCCNCC1 | 79.9 |
| N#CC(C#N)=C(N)/C(C#N)=C/c1ccc(O)cc1 | 96.2 |

Series 4
SMILES: Nc1c(C(=O)NCc2ccc(C(=O)NCCCC3CCCCC3)cc2)cnn1-c1ccccc1
Concentration: 0.1 µM
| target | assay | remaining binding |
| --- | --- | --- |
| LTK (Homo sapiens, UniProt P29376) | cell-free assay, competition with immobilised ligand | 100% |
| CDC42BPG (Homo sapiens, UniProt Q6DT37) | competition binding | 100% |
| Ribosomal protein S6 kinase alpha-2, N-terminal kinase domain (RPS6KA2, Homo sapiens, UniProt Q15349) | cell-free assay, competition with immobilised ligand | 100% |
| BMP2K (Homo sapiens, UniProt Q9NSY1) | cell-free assay, competition with immobilised ligand | 100% |
| SNRK (Homo sapiens, UniProt Q9NRH2) | cell-free assay, competition with immobilised ligand | 91% |
| MAP3K10 (Homo sapiens, UniProt Q02779) | cell-free assay, competition with immobilised ligand | 85% |

A few entries again (series 2):
| Oligonucleotide | normalised bound fraction [ratio] |
| --- | --- |
| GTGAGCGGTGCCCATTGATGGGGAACCATTTGCCTCCGTCCCCACCCCCAGCCTGCTGCCTCTCAGGTTCACACTTCCTGGGCTCAGAGTTTCATCCTGAGGCAGATGGCTCAGCCAGAGCAATCTGAGACAGCACTAAAGTCATCTAAACCAGAGAGCAAGCAGCGCAGGTGACGTGGAAAAGAAAACTTGGAAGCCACAACAAAGGCATGTGGGCTGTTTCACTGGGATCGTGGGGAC | -0.0616 |
| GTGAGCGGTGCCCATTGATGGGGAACCAGTTTTGCAAAGACGGAGTCCGTCAGAGAAAGCATTTGTTTGATTTCATGCATTTGTGTTTCCTTTGTCCATTTCCTTTATATTTATTTATTTGTTTATTTATTTTTTTGAGACGGAGTTTCGATCCTCTCGCCCAGGCTGGAGTGCAATATCGCGATCTCGGCTCACTGCAACCTCCCCCTCCCGGGTTCATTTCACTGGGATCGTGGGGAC | 0.523 |
| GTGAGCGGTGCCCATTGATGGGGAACACTCTGTAATTTTACACACGTGAAATTTCTCTGTTTCAAAAATAATAATACCAAGCATCTATAGGAGAGTAAATTGATACCAACATCAAAATGTAAACATGGAAGGTAAGAGAATTTTATAAGATCTGCTTTTTACACTTTCTTTTTCATATTCTATAAAAAGAGTACAACATAAGCAAAATGGTTGTCTAAATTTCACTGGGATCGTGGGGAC | 0.344 |
| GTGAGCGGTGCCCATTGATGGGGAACAACAGAAACAGGCCAGCCTATTTACACAAGGACGTTTACTACAAAAACCTGAACCAGTGAGTAGCAATAAAGGGCTAGTTAAAAAGACTTCGGTATTTACATAGAACATGAATATGTGCATTATAAAGTTTGAGGTAGATCTATTTATGCCACTGTGGAATGATCTCGAAGATAAATAACTGACAAGCAAGACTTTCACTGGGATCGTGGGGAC | 0.482 |
| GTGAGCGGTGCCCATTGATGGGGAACATACACTTCATTATGTCACTGTTGTTTGGTTGTGTTCTAGGCGAGAAACCACCTTTGGAAGGTTCACAGCAGCCCCAATTTAGCACTCTGCCAAGATTACATTGTCAGGCTGCATTGCCACTAGGGGGAACCATAGCTTTTTATCATCCCAGCCAGGGTGGCTGTGGGCAGCTTCTGCCTGGCAGGTAATAAGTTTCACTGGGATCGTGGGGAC | -0.0289 |
